# Published values gathered from unrelated publications.
# Compare with care: the assays were run in different laboratories.
# Organism: Toxoplasma gondii
Structure (SMILES),test,test system,conditions,how to read,measurement,value
COc1cc(CNCCCNCc2ccc(OCc3ccccc3)c(OC)c2)ccc1OCc1ccccc1,,human foreskin fibroblasts,1 µM,relative to: untreated,inhibition,≥ 75%
CC1(C)COC(c2ccc(-c3cn(C45CC6CC(CC(C6)C4)C5)nn3)cc2)OC1,,"ME49, male Brown Norway rats","intraperitoneal, 3 mg/kg daily for 14 days",,brain cyst number,~20 cysts per brain
Nc1ccc(S(=O)(=O)Nc2ncccn2)cc1,parasite growth,,intracellular,,IC50,27.3 µM
CC(C)(C)c1nn(-c2cc(OCc3cn(Cc4ccccc4[N+](=O)[O-])nn3)c(Cl)cc2Cl)c(=O)o1,"parasite growth, luciferase",,"96 h, intracellular",,IC50,20 to 27 µM
Cc1ccc(C(=O)NN=C2C=C(C(C)(C)C)C(=O)C(C(C)(C)C)=C2)cc1,"parasite growth, fluorescence",,"5 days, intracellular",,IC50,2 µM
CCc1nc(N)nc(N)c1-c1ccc(Cl)cc1,parasite growth,,intracellular,,IC50,16.1 µM
CC(C)(NC(=O)c1cc2c(Cl)cc(Cl)cc2[nH]1)c1cn(Cc2ccc(Cl)c(Cl)c2)nn1,,"ME49, male Brown Norway rats","intraperitoneal, 4 mg/kg daily for 14 days",,brain cyst number,~20 cysts per brain
N#CSCCOc1ccc(Oc2cccc([N+](=O)[O-])c2)cc1,,"hTERT fibroblasts, RFP-expressing tachyzoites",,,IC50,2 µM
COc1cc(OC)c2c(=O)cc(-c3ccc(Br)cc3)oc2c1-c1c(OC)cc(OC)c2c(=O)cc(-c3ccc(Br)cc3)oc12,"parasite proliferation, 3H-uracil incorporation","HS27 host cells, ME49 tachyzoites",,,IC50,2.3 µM
CC(/C=C/C(=O)NO)=C\[C@@H](C)C(=O)c1ccc(N(C)C)cc1,"intracellular growth, [3H]uracil incorporation","HFF, RH wild type",,,EC50,0.4 µM
CC1(C)CC(=NNC(=O)c2ccncc2)CC(C)(C)C1=O,"parasite growth, fluorescence",,"5 days, intracellular",,IC50,> 100 µM
CC[C@H]1OC(=O)[C@H](C)[C@@H](O[C@H]2C[C@@](C)(OC)[C@@H](O)[C@H](C)O2)[C@H](C)[C@@H](O[C@@H]2O[C@H](C)C[C@H](N(C)C)[C@H]2O)[C@](C)(O)C[C@@H](C)CN(Cc2ccccc2)[C@H](C)[C@@H](O)[C@]1(C)O,,,"10 µM, 24 h post-infection",,parasitophorous vacuole density,decreased
COc1ccc(CNCCCCCCCCCCCCNCc2ccc(OC)cc2)cc1,,human foreskin fibroblasts,1 µM,relative to: untreated,inhibition,≥ 75%
COc1ccc(Oc2cccc(OCCSC#N)c2)cc1,,"hTERT fibroblasts, RFP-expressing tachyzoites",,,IC50,2.9 µM
CC(C)(C)C1=CC(=NNC(=O)c2c[nH]cn2)C=C(C(C)(C)C)C1=O,"parasite growth, fluorescence",,"5 days, intracellular",,IC50,40 µM
Cc1cc(O)c2c(=O)cc(-c3ccc(N(C)C)cc3)oc2c1-c1c(C)cc(O)c2c(=O)cc(-c3ccc(N(C)C)cc3)oc12,"parasite proliferation, 3H-uracil incorporation","HS27 host cells, ME49 tachyzoites",,,IC50,> 50 µM
